Measurements pooled from the literature.
Each line is one published result; not all experiments were run side by side. ± gives the spread as reported.

| Compound | method | species | sample | route | dose | setting | AUC(0-inf) |
| --- | --- | --- | --- | --- | --- | --- | --- |
| Cc1cc(C)c(CNC(=O)c2cc(Cl)c3c(c2C)O[C@@](C)([C@H]2CC[C@H](N(C)C)CC2)O3)c(=O)[nH]1 | geometric LS mean | healthy male humans | plasma | oral | 25 mg | alone, itraconazole DDI study reference | 760 ng·h/mL |
| C#C[C@]1(CO)O[C@@H](n2cnc3c(N)nc(F)nc32)C[C@@H]1O |  | human, fed | plasma | oral | 30 mg | geometric mean | 4.21 µM·h |
| C=CC(=O)N(C)CCOc1c(N)ncnc1-c1cc(F)cc(NC(=O)c2ccc(C3CC3)cc2F)c1C |  | human | whole blood | oral | 30 mg | single ascending dose | 77.5 ng·h/mL |
| CN(C)C(=O)c1cc2cnc(Nc3ccc(N4CCNCC4)cn3)nc2n1C1CCCC1 |  | human, severe renal impairment | plasma | oral | 400 mg | geometric mean | 10900 ng·h/mL |
| CN(CC#N)C(=O)C[C@H](Nc1nc2ccccc2[nH]1)c1cccc(C(F)(F)F)c1 |  | human |  | intravenous infusion | 4 mg/kg | 1 mg/mL formulation | 20000 ± 7790 ng·h/mL |
| C=CC(=O)NC1CCN(c2ncc3ncnc(Nc4ccc(Oc5ccc6c(c5)ncn6C)c(C)c4)c3n2)CC1 |  | human, male | plasma | oral | 30 mg single dose | fed, geometric mean | 4.31 µM·h |
| N[C@@H]1c2cccnc2[C@H](OC(=O)N2CCC(n3c(=O)[nH]c4ncccc43)CC2)CC[C@H]1c1cccc(F)c1F |  | human | plasma | oral | 75 mg single dose | alone, geometric mean, rifampin DDI study | 4960 ng·h/mL |
| C[C@H]1CN(C(=O)CC#N)[C@]12CCN(c1ncnc3[nH]ccc13)C2 |  | healthy human | plasma | oral | 6 mg single | median | 215 ng·h/mL |

Some of these lines once more:
| Compound | method | species | sample | route | dose | setting | AUC(0-inf) |
| --- | --- | --- | --- | --- | --- | --- | --- |
| C#C[C@]1(CO)O[C@@H](n2cnc3c(N)nc(F)nc32)C[C@@H]1O |  | human, fed | plasma | oral | 30 mg | geometric mean | 4.21 µM·h |
